{"data": "Results gathered from unrelated publications", "note": "Parts stem from different laboratories: compare values within a part only."}
{"data": "Study 1", "target": "Histone acetyltransferase KAT6A, both winged helices, GST fusion (KAT6A, Homo sapiens, UniProt Q92794, residues 1-181)", "method": "protein binding microarray", "form": "double-stranded DNA, one strand shown", "sample": "in vitro", "concentration": "not given", "setting": "8-mer, flanks averaged, mean of 2 arrays, mostly near background", "baseline": "not given", "reading": "higher = stronger binding", "Construct (chain)": "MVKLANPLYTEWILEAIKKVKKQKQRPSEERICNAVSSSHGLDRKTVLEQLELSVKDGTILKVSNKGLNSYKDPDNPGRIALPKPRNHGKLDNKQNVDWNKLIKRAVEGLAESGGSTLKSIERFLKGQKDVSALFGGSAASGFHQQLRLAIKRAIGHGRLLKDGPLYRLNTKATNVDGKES"}
{"Oligonucleotide": "CAGGCTGC", "E-score": -0.164}
{"Oligonucleotide": "GGCGTCCA", "E-score": 0.0406}
{"Oligonucleotide": "AGTAGACA", "E-score": -0.102}
{"Oligonucleotide": "CATCCAAC", "E-score": -0.121}
{"Oligonucleotide": "CTGGTGAC", "E-score": -0.114}
{"Oligonucleotide": "AGCCAGCA", "E-score": -0.303}
{"Oligonucleotide": "ACTCGGCT", "E-score": 0.0383}
{"Oligonucleotide": "TCACCCAA", "E-score": -0.165}
{"Oligonucleotide": "TGAGGTAA", "E-score": -0.145}
{"Oligonucleotide": "CGAGCTTC", "E-score": -0.00041}
{"Oligonucleotide": "GGGTCCAA", "E-score": -0.144}
{"Oligonucleotide": "CAACACCA", "E-score": -0.161}
{"Oligonucleotide": "CGGCGGCC", "E-score": 0.338}
{"Oligonucleotide": "AGGGATCG", "E-score": -0.0922}
{"Oligonucleotide": "GAGCCCGA", "E-score": -0.0109}
{"Oligonucleotide": "GCAATCGA", "E-score": 0.019}
{"data": "Study 2", "target": "Prothrombin, mature alpha-thrombin (F2, Homo sapiens, UniProt P00734)", "method": "aptamer microarray, sandwich", "form": "DNA with 2'F-ANA", "sample": "in vitro", "concentration": "200 nM", "setting": "whole 15-mer aptamer, many near background", "together with": "Cy3 exosite-II aptamer, 400 nM", "reading": "higher = stronger binding", "oligonucleotide": "GGTTGGTGTGGTTGG"}
{"Modification": "2'F-ANA at 2 5 7 8 9 11 12 13 14", "mean fluorescence intensity [a.u.]": 50.9}
{"Modification": "2'F-ANA at 5 6 7 10 13 14 15", "mean fluorescence intensity [a.u.]": 45.6}
{"Modification": "2'F-ANA at 1 4 8 13 14 15", "mean fluorescence intensity [a.u.]": 53.1}
{"Modification": "2'F-ANA at 1 5 7 9 15", "mean fluorescence intensity [a.u.]": 60.3}
{"Modification": "2'F-ANA at 2 10 13 14", "mean fluorescence intensity [a.u.]": 90.3}
{"Modification": "2'F-ANA at 1 3 7 9 12 13", "mean fluorescence intensity [a.u.]": 466}
{"Modification": "2'F-ANA at 5 6 8 9 10 12 13 14", "mean fluorescence intensity [a.u.]": 51.3}
{"Modification": "2'F-ANA at 7 9 15", "mean fluorescence intensity [a.u.]": 544}
{"Modification": "2'F-ANA at 2 4 6 7 8 10 14 15", "mean fluorescence intensity [a.u.]": 58.9}
{"Modification": "2'F-ANA at 3 4 7 8 9 10 11 13 15", "mean fluorescence intensity [a.u.]": 294}
{"Modification": "2'F-ANA at 2 8 9 10 11 12 15", "mean fluorescence intensity [a.u.]": 131}
{"Modification": "2'F-ANA at 3 4 5 8 10 11 12 13 14 15", "mean fluorescence intensity [a.u.]": 191}
{"Modification": "2'F-ANA at 1 2 5 7 9 13 15", "mean fluorescence intensity [a.u.]": 49.9}
{"Modification": "2'F-ANA at 3 6 7 8 9 10 11 12 14", "mean fluorescence intensity [a.u.]": 375}
{"Modification": "2'F-ANA at 2 3 6 15", "mean fluorescence intensity [a.u.]": 764}
{"Modification": "2'F-ANA at 1 2 5 6 7 9 10 11 12 13 14", "mean fluorescence intensity [a.u.]": 59.2}
{"Modification": "2'F-ANA at 2 6 8 11 12 13 14 15", "mean fluorescence intensity [a.u.]": 117}
{"Modification": "2'F-ANA at 3 5 6 7 14", "mean fluorescence intensity [a.u.]": 49.2}
{"Modification": "2'F-ANA at 2 5 6 8 9 10 12 13 15", "mean fluorescence intensity [a.u.]": 69.1}
{"Modification": "2'F-ANA at 1 7 8 9 12", "mean fluorescence intensity [a.u.]": 428}
{"data": "Study 3", "target": "Ras GTPase-activating protein-binding protein 1, C-terminal RGG region (G3BP1, Homo sapiens, UniProt Q13283)", "method": "RNA Bind-n-Seq", "form": "RNA", "sample": "in vitro", "concentration": "1 µM", "setting": "whole 134-nt RNA, ends assumed", "together with": "150 mM KCl", "baseline": "input library", "reading": "higher = stronger binding", "shared flanks, not repeated": "GGGAGUUCUACAGUCCGACGAUC … UGGAAUUCUCGGGUGUCAAGG", "sequence of UniProt Q13283 (whole entry, looked up)": "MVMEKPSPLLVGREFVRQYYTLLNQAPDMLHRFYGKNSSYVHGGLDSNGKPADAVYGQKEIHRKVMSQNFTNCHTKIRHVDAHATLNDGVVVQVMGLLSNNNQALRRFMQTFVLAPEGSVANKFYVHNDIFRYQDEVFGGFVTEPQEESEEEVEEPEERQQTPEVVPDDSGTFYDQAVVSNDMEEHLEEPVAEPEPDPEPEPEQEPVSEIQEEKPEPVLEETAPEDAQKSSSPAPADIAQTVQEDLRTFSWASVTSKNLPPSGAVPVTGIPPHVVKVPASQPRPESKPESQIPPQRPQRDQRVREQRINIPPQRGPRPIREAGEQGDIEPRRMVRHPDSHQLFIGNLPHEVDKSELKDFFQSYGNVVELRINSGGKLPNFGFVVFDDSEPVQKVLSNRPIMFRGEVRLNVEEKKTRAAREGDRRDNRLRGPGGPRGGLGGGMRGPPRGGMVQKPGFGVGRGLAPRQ"}
{"Oligonucleotide": "AGCAUGCAGGUGGGCAUCUUUGGGAAGUGGGGCAAGGGGGGGAUAGGGAGGGGGGUAACACUUUGGGAACAGGUGGUCCCAGGUCGUUUC", "log2 enrichment": -1.15}
{"Oligonucleotide": "ACCAUGCAGGUGGGCAUCUUAGGGAAGUGGGGCAAGGGGGGGAUAGGGAGGGGGGUAACACUUUGGGAACAGGUGGUCCCAGGUCGUUUC", "log2 enrichment": -0.989}
{"Oligonucleotide": "CAAGUCCUGUGCUACACAUCGUAUGUACCGAAUCGGGGUUUGGGUUUGGUUUGGGAAAGUAUUAUGUUACGCCGUUCGGAUCUGCACUUC", "log2 enrichment": -0.738}
{"Oligonucleotide": "UGGGAGGUGGAUUUUGUUUAUUUUUUUAGCUCAUCUCCAGGGGUGGGAAUUUUUUUUUAAUAUGUGUCAUGAAUAAAGUUGUUUUUGAAA", "log2 enrichment": 3.39}
{"Oligonucleotide": "CUGUGCUACACAUCGUAUGUACCGAAUCGGGCCCCCCCGGCCCCCCCGGGGCCCCCCCGGGGAAAGUAUUAUGUUACGCCGUUCGGAUCU", "log2 enrichment": -2.46}
{"Oligonucleotide": "UGGGAGGUGGAUUUUGUUUAUUUUUUUAGCGCAUUUCCAGGGGUGGGAAUUUUUUUUUAAUAUGUGUCAUGAAUAAAGUUGUUUUUGAAA", "log2 enrichment": 3.76}
{"Oligonucleotide": "UAAGGAUUCUAUCUGCUUACUGCUACAGACCUAUGUGUUAAGGAAUUCUUCUCCUCCUCCUUGCGUAGAAGUUGAUCAGCACUGUGGUCA", "log2 enrichment": -0.334}
{"Oligonucleotide": "UAACUUUAGAGGAGGAUCUGAUGGAUAUGGCAGUGGACGUGGAUUUGGGGAUGGCUAUAAUGGGUAUGGAGAAGGACCUGGAGGUGGCAA", "log2 enrichment": -0.579}
{"Oligonucleotide": "CCUGUGCUACACAUCGUAUGUACCGAAUCGGGGUUUUUGGGGAAAAAAAGGGGUUUGGGGAAAGUAUUAUGUUACGCCGUUCGGAUCUGC", "log2 enrichment": 0.647}
{"data": "Study 4", "target": "Centromere-binding protein 1, full length, N-terminal tag (CBF1, Saccharomyces cerevisiae, UniProt P17106, residues 1-351)", "method": "protein-binding microarray", "form": "double-stranded DNA, one strand shown", "sample": "in vitro", "concentration": "0.8 µM", "setting": "whole 60-bp probe, no competitor", "reading": "higher = stronger binding", "shared flanks, not repeated": "… GTCTTGATTCGCTTGACGCTGCTG", "sequence of UniProt P17106 (whole entry, looked up)": "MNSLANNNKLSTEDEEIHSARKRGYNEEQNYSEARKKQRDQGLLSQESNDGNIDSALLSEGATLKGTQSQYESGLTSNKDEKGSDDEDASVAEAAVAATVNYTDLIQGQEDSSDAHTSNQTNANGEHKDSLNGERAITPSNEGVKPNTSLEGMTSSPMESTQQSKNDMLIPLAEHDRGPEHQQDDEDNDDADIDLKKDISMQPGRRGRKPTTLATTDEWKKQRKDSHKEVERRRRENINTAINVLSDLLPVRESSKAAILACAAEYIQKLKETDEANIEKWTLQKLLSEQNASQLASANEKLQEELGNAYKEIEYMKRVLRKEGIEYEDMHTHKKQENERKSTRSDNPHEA"}
{"Oligonucleotide": "GAAGCTGTTTCTAATCACGTCTATCTAATTCATTAG", "fluorescence intensity": "753 a.u."}
{"Oligonucleotide": "GAACATAGGCGCTACCATGTGGACAATGTGGATTAG", "fluorescence intensity": "600 a.u."}
{"Oligonucleotide": "GAAGATTCGTTAAAATACGTGATGGTGTTATTTTAG", "fluorescence intensity": "583 a.u."}
{"Oligonucleotide": "CTATTCCATAGTTCTCATCAGTTGCAAACAGTATTC", "fluorescence intensity": "560 a.u."}
{"Oligonucleotide": "CTAATACCAAGAACTCACGAAAAGACTAGGAATTTC", "fluorescence intensity": "487 a.u."}
{"Oligonucleotide": "CTAGTAACTCAACATCACGAACGACGTTTATGTTTC", "fluorescence intensity": "524 a.u."}
{"Oligonucleotide": "GAAGTAATACTGGATCAGGAGGGTATGATAATGTAG", "fluorescence intensity": "682 a.u."}
{"Oligonucleotide": "GAACGAATTGTATATCACGAGAGGTGATGGCACTAG", "fluorescence intensity": "1390 a.u."}
{"Oligonucleotide": "CTAGTTCAAAGCGATCACGAATATTTTAAGAACTTC", "fluorescence intensity": "586 a.u."}
{"Oligonucleotide": "GAACTAGACCCGCACGTGACCACTTCGAGAGCATAG", "fluorescence intensity": "22100 a.u."}
{"Oligonucleotide": "GAAGGGGCAAATAATAACGTGGGAATAACAAGCTAG", "fluorescence intensity": "556 a.u."}
{"Oligonucleotide": "GAATTTAAGCGCTCTCGTGAGAGAATATCACTGTAG", "fluorescence intensity": "672 a.u."}
{"Oligonucleotide": "GAATCCCAGCCAGCCTTTCTTGTATTTTGAATGTAG", "fluorescence intensity": "495 a.u."}
{"Oligonucleotide": "CTAGGCGCTGGCGCTCACCCCACAAGAGCGTCCTTC", "fluorescence intensity": "470 a.u."}
{"Oligonucleotide": "GAATAGAACTCGCCTTACGTGCTCTACATTCGTTAG", "fluorescence intensity": "491 a.u."}
{"Oligonucleotide": "GAATTTCATATTCATCAGACATAATGAATTTCATAG", "fluorescence intensity": "519 a.u."}
{"Oligonucleotide": "GAACTCGATCATACCAACGTCACGTGTAAAGCTTAG", "fluorescence intensity": "12900 a.u."}
{"Oligonucleotide": "CTAAAAGGACCACATCACCAGACTTATCTCTGGTTC", "fluorescence intensity": "501 a.u."}
{"Oligonucleotide": "GAATGCAATAGACAGCACGAGTCTTTGAAAAAGTAG", "fluorescence intensity": "752 a.u."}
{"note": "Excerpt of the above (study 2):"}
{"Modification": "2'F-ANA at 2 5 7 8 9 11 12 13 14", "mean fluorescence intensity [a.u.]": 50.9}
{"Modification": "2'F-ANA at 5 6 7 10 13 14 15", "mean fluorescence intensity [a.u.]": 45.6}
{"Modification": "2'F-ANA at 1 4 8 13 14 15", "mean fluorescence intensity [a.u.]": 53.1}
{"Modification": "2'F-ANA at 1 5 7 9 15", "mean fluorescence intensity [a.u.]": 60.3}
{"Modification": "2'F-ANA at 2 10 13 14", "mean fluorescence intensity [a.u.]": 90.3}
{"Modification": "2'F-ANA at 1 3 7 9 12 13", "mean fluorescence intensity [a.u.]": 466}
{"Modification": "2'F-ANA at 5 6 8 9 10 12 13 14", "mean fluorescence intensity [a.u.]": 51.3}
